# Measurements collected from several papers.
# Several values in a cell are separate wells, animals, samples, runs or records. Numbers after ± are the reported error.
# Chain of UniProt Q16891 (whole entry, looked up): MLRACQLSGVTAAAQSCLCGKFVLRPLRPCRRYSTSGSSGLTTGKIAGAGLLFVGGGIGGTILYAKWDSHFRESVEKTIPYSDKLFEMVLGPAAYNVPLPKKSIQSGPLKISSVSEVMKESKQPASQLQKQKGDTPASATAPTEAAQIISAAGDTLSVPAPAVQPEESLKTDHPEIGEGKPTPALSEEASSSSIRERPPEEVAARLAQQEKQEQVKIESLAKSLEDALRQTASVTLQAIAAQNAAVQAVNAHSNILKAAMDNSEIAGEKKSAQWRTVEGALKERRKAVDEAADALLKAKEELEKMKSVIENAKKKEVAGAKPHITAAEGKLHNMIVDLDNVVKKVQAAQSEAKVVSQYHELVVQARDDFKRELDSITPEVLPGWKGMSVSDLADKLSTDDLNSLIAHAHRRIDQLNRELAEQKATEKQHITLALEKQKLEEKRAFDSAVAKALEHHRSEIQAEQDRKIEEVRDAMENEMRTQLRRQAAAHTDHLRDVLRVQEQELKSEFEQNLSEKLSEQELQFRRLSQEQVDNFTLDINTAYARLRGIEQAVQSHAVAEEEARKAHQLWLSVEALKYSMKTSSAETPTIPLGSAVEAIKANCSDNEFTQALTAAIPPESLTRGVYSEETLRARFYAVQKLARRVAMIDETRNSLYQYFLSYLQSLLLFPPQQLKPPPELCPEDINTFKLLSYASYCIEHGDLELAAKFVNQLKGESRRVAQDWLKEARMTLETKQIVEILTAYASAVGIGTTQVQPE
SMILES,tested on,test,test system,conditions,how to read,measurement,result
O=c1ccc2ccccc2o1,HepG2,item: cell count,,"24 h, phospholipidosis and steatosis panel",,point of departure,554 µM
CC(c1ccccc1)(c1ccc(O)cc1)c1ccc(O)cc1,"HepG2 spheroids, dissociated",annexin V-FITC/PI flow cytometry,,"0.1 µM, 24 h",,viable cells,73.5 ± 8.14%
CC[C@H](C)[C@H](NC(=O)[C@H](CCCCN)NC(=O)[C@H](CC(N)=O)NC(=O)[C@H](CCCNC(=N)N)NC(=O)[C@H](C)NC(=O)[C@H](CC(C)C)NC(=O)[C@H](CC(C)C)NC(=O)[C@H](CCSC)NC(=O)[C@H](Cc1c[nH]cn1)NC(=O)[C@H](CC(C)C)NC(=O)[C@H](CC(C)C)NC(=O)[C@H](CC(=O)O)NC(=O)[C@H](CCC(N)=O)NC(=O)[C@@H]1CCCN1C(=O)[C@H](Cc1c[nH]c2ccccc12)NC(=O)CNC(=O)[C@@H]1CCCN1C(=O)[C@H](CC(C)C)NC(=O)[C@@H](NC(=O)[C@H](Cc1ccc(O)cc1)NC(=O)[C@@H](NC(=O)[C@H](CC(C)C)NC(=O)[C@H](CCCCN)NC(=O)[C@@H](N)CCCNC(=N)N)C(C)C)C(C)C)C(=O)N[C@@H](CCCNC(=N)N)C(=O)N[C@H](C(=O)N[C@@H](CC(C)C)C(=O)N[C@@H](CCCCN)C(=O)N[C@@H](CC(N)=O)C(=O)N[C@@H](CC(N)=O)C(=O)N[C@@H](CCSC)C(=O)N[C@@H](Cc1ccccc1)C(=O)N[C@@H](CO)C(=O)N[C@@H](CCCCN)C(=O)N[C@@H](Cc1ccccc1)C(=O)N[C@@H](CCCCN)C(=O)N[C@@H](CCCCN)C(=O)N[C@@H](CC(C)C)C(=O)N[C@@H](CCCCN)C(=O)N[C@@H](CO)C(=O)N[C@@H](CC(C)C)C(=O)O)[C@@H](C)O,PMA-differentiated THP-1,"cell viability, MTT",,24 h,,CC50,23.3 µM
Cc1cc(NC(=O)c2cc3c(=O)n4cccc(C)c4nc3n2C)ccc1Br,Vero,MTT,,"25 µM, 24 (unit not given)",,viability,62.4%
O=S(=O)(c1ccc(O)cc1)c1ccc(O)cc1,"HepG2 spheroids, dissociated",annexin V-FITC/PI flow cytometry,,"40 µM, 24 h",,late apoptotic cells,18.4 ± 8.56%
CC[C@H](C)[C@H](NC(=O)[C@H](Cc1ccccc1)NC(=O)[C@H](CCC(=O)O)NC(=O)[C@H](CCCNC(=N)N)NC(=O)[C@H](C)NC(=O)[C@H](C)NC(=O)[C@H](CCC(N)=O)NC(=O)[C@H](CCC(=O)O)NC(=O)[C@H](CCC(=O)O)NC(=O)[C@H](CC(C)C)NC(=O)[C@H](Cc1ccc(O)cc1)NC(=O)[C@H](CO)NC(=O)[C@H](CO)NC(=O)[C@@H](NC(=O)[C@H](CC(=O)O)NC(=O)[C@H](CO)NC(=O)[C@@H](NC(=O)[C@H](Cc1ccccc1)NC(=O)[C@@H](NC(=O)CNC(=O)[C@H](CCC(=O)O)NC(=O)[C@H](C)NC(=O)CCc1c[nH]cn1)[C@@H](C)O)[C@@H](C)O)C(C)C)C(=O)N[C@@H](C)C(=O)N[C@@H](Cc1c[nH]c2ccccc12)C(=O)N[C@@H](CC(C)C)C(=O)N[C@H](C(=O)N[C@@H](CCCNC(=N)N)C(=O)NCC(=O)N[C@@H](CCCNC(=N)N)C(=O)N[C@@H](CCCCNC(=O)COCCOCCNC(=O)COCCOCCNC(=O)CC[C@H](NC(=O)CCCCCCCCCCCCCCCCC(=O)O)C(=O)O)C(=O)NCC(=O)NCC(=O)N[C@@H](CO)C(=O)N[C@@H](CCCCNc1c(NCCCCCN(O)C(=O)CCC(=O)NCCCCCN(O)C(=O)CCC(=O)NCCCCCN(O)C(C)=O)c(=O)c1=O)C(=O)O)C(C)C [zirconium-89 labelled],,,"rat, pancreas","sc, 3 nmol/kg, 4 h, ex vivo",,tissue uptake,0.13 %ID/g
CC(C)C[C@H](NC(=O)[C@H](C)NC(=O)[C@@H](NC(=O)[C@H](CCCNC(=N)N)NC(=O)[C@H](CC(C)C)NC(=O)[C@H](Cc1c[nH]c2ccccc12)NC(=O)[C@@H]1CCCN1C(=O)[C@@H](N)CCCCN)C(C)C)C(=O)N[C@@H](CS)C(=O)N1CCC[C@H]1C(=O)NCC(=O)O,H9c2,WST-1,,"256 µM, 24 h",,viability,78.2% and 86.4% and 91%
C[C@H]1CN(c2n[nH]c3nc(N[C@H]4CC[C@H](NS(=O)(=O)CCC(F)(F)F)CC4)ncc23)CCO1,"MICOS complex subunit MIC60 (Homo sapiens, UniProt Q16891)","Kinobeads competition, item: IMMT",,"20 µM, unit not given",baseline: vehicle,remaining binding,1.19
CC(C)C[C@H](NC(=O)[C@H](CCCNC(=N)N)NC(=O)[C@H](Cc1c[nH]c2ccccc12)NC(=O)[C@H](CCCNC(=N)N)NC(=O)[C@H](Cc1c[nH]c2ccccc12)NC(=O)[C@H](Cc1c[nH]c2ccccc12)NC(=O)[C@H](Cc1c[nH]c2ccccc12)NC(=O)[C@H](CCCNC(=N)N)NC(=O)[C@H](Cc1c[nH]c2ccccc12)NC(=O)[C@H](CCCNC(=N)N)NC(=O)CN)C(N)=O,PK-15,,,,,LC50,93.5 µM
Cc1cc(C(C)(C)c2ccc(O)c(C)c2)ccc1O,"HepG2 spheroids, dissociated",annexin V-FITC/PI flow cytometry,,"10 µM, 24 h",,viable cells,69 ± 8.66%
N#C[C@@]1(n2ccc(N)nc2=O)O[C@H](CO)[C@@H](O)[C@H]1O,CHO,,,"8 µM, without S9",,micronucleated cells,0.32%
COc1cc2c(Oc3ccc4[nH]c(C)cc4c3F)ccnc2cc1OCC1(N)CC1,,,paediatric recurrent refractory sarcoma,8 mg,,grade 3 Nausea,0%
CO[C@H]1C[C@@H]2CC[C@@H](C)[C@@](O)(O2)C(=O)C(=O)N2CCCC[C@H]2C(=O)O[C@H]([C@H](C)C[C@@H]2CC[C@@H](OC(=O)NCCOCCOCCOCCOCCOCCOCCOCCOCCC(=O)N3CCc4cc(Cn5nc(-c6ccc7oc(N)nc7c6)c6c(N)ncnc65)ccc4C3)[C@H](OC)C2)C[C@@H](O)[C@H](C)/C=C(\C)[C@@H](O)[C@@H](OC)C(=O)[C@H](C)C[C@H](C)/C=C/C=C/C=C/1C,,,patients with advanced solid tumours,"intravenous, dose not given, any grade",,incidence of Headache TRAE,15.8%
CCCCCc1nc(N)[nH]c(=O)c1Br,HeLa,cell morphology alteration,,,,minimum cytotoxic concentration,20 µM
COc1cc(Nc2ncc(F)c(Nc3ccc4c(n3)NC(=O)C(C)(C)O4)n2)cc(OC)c1OC,lipid peroxidase,,,,,IC50,> 10 µM
